Results of several laboratories.
Each line is one published result; not all experiments were run side by side. ± marks the error that the study gave.
cofactor-independent phosphoglycerate mutase W431C: cofactor-independent phosphoglycerate mutase (Metamycoplasma orale, UniProt A0A448ZXM1, W431C)
ABCG2: Broad substrate specificity ATP-binding cassette transporter ABCG2 (ABCG2, Homo sapiens, UniProt Q9UNQ0)
Chain of UniProt Q9UNQ0 (whole entry, looked up): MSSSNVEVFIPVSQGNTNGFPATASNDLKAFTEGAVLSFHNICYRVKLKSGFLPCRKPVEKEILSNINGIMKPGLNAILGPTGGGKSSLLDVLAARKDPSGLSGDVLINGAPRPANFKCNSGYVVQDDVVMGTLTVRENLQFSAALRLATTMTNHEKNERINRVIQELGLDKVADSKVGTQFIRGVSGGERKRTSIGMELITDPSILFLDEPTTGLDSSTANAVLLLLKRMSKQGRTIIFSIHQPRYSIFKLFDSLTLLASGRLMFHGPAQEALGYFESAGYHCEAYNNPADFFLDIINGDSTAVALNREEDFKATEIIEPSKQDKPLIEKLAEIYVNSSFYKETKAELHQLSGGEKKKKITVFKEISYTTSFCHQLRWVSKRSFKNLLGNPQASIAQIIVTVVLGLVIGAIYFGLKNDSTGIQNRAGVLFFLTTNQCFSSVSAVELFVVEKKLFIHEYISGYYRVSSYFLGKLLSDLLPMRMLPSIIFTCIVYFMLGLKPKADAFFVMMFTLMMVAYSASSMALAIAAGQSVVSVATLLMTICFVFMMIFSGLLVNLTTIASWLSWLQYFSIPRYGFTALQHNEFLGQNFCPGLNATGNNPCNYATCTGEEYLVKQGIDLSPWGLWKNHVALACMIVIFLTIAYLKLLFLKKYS
CYP3A4: Cytochrome P450 3A4 (CYP3A4, Homo sapiens, UniProt P08684)
Chain of UniProt P08684 (whole entry, looked up): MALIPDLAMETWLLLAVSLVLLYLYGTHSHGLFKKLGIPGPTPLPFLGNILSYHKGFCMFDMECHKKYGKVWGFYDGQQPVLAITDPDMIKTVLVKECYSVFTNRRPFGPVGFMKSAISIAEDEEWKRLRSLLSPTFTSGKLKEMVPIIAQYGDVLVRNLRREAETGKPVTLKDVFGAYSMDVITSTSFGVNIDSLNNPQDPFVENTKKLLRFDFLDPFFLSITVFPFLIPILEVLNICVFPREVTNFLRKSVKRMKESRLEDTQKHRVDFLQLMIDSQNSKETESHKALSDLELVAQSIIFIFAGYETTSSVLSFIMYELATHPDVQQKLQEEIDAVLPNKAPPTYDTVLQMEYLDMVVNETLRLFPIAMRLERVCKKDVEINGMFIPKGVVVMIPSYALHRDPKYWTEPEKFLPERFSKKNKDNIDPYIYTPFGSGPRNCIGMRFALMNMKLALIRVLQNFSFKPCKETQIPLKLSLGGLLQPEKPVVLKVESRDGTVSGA
Chain of UniProt P61073 (whole entry, looked up): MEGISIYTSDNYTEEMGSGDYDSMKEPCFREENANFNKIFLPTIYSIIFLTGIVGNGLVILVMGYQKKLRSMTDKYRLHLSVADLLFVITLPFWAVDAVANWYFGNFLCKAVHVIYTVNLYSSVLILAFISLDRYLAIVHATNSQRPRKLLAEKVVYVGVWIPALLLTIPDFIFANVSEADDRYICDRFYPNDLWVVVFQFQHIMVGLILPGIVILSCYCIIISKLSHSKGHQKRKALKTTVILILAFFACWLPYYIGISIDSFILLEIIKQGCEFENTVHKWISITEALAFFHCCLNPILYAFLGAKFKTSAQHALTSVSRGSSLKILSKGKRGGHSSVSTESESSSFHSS
Chain of UniProt O15439 (whole entry, looked up): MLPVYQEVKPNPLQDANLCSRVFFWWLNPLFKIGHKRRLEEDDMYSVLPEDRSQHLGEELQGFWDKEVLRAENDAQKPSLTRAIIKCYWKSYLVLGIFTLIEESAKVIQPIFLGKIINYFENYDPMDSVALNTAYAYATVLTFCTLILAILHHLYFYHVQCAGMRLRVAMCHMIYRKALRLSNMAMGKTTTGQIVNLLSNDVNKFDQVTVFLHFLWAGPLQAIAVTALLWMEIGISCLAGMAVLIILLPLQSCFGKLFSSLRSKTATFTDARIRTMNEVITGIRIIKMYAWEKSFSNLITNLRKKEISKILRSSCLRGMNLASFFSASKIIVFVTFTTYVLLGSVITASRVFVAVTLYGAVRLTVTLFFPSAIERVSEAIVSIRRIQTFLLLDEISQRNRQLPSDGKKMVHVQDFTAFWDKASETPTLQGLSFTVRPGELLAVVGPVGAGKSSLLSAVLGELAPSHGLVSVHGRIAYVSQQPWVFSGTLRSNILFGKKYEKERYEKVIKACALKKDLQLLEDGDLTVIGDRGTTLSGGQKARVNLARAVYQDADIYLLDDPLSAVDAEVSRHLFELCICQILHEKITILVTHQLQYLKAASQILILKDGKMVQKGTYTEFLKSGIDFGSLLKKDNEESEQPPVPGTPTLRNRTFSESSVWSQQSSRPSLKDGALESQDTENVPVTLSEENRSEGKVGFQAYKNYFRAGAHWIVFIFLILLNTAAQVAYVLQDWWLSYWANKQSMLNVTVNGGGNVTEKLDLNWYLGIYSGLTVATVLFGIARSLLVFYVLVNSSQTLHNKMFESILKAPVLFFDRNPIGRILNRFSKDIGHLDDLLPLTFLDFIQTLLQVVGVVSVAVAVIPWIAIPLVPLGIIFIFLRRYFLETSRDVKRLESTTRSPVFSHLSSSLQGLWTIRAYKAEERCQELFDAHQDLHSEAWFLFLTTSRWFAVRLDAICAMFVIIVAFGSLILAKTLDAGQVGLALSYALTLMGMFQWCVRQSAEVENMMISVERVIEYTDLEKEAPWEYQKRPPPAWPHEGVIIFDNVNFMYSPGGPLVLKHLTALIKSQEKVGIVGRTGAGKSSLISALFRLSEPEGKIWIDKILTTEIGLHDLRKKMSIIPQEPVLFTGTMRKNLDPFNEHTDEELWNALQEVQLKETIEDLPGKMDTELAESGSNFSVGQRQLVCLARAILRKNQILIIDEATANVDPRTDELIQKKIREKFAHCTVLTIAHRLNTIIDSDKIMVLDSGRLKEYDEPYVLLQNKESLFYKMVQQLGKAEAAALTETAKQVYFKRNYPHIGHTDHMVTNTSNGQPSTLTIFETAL
Chain of UniProt P08835 (whole entry, looked up): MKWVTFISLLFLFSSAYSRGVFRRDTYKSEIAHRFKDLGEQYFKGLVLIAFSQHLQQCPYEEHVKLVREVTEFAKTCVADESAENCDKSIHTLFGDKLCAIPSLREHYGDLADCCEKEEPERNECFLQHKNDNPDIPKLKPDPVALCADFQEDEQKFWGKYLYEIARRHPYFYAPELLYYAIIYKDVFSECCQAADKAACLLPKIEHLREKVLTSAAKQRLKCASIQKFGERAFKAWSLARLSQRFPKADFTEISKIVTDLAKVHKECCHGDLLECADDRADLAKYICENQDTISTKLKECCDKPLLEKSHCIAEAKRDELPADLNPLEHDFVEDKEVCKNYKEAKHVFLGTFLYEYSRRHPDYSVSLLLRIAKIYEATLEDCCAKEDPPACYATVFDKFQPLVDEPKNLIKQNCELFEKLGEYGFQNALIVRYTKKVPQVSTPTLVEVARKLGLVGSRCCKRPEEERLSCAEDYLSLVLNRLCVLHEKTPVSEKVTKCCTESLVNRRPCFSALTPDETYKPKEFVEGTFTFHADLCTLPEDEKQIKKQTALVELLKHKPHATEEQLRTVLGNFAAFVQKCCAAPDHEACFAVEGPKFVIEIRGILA
Chain of UniProt Q9NPD5 (whole entry, looked up): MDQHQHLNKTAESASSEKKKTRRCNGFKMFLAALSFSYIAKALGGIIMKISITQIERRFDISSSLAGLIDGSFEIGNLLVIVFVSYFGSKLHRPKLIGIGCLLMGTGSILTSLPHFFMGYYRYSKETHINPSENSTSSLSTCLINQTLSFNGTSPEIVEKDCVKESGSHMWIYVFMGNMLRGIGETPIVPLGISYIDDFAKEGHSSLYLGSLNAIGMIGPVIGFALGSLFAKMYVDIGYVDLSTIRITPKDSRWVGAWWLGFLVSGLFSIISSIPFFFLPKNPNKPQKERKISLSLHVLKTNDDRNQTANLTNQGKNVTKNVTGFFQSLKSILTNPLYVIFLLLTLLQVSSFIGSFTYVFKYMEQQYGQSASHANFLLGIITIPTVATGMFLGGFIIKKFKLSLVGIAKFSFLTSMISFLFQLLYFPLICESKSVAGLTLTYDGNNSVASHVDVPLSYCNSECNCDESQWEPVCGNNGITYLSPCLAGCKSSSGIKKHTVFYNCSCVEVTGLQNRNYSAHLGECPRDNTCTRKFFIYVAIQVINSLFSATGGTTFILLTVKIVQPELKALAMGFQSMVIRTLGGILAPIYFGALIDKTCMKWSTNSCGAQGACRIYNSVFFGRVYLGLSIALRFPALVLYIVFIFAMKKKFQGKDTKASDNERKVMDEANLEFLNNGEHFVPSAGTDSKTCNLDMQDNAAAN

For O=C(O)Cc1cccc(OC(=O)NCCCCCn2ccc3ccc(F)cc32)c1, “remaining parent compound” read > 95% (Albumin (ALB, Sus scrofa, UniProt P08835); porcine protein solution 17.5 mg/mL in PBS; 20 µM, 0.5 h, 37 °C).
For [64Cu+2].c1ccc(CNCc2ccc(CN3CCCNCCNCCCNCC3)cc2)nc1, the tumour-to-tissue ratio was 18.4 ± 8.23 (CXCR4; NOD/SCID mouse, U87 and U87-stb-CXCR4 xenografts; iv, 90 min, no blocking dose; reference: U87 tumour over muscle).
CCCC[C@H]1C(=O)N2CCC[C@H]2C(=O)N[C@H](C(N)=O)CSCC(=O)N[C@@H](Cc2ccc(O)cc2)C(=O)N(C)[C@@H](Cc2ccc(OC)cc2)C(=O)N[C@@H](CCCNC(=N)N)C(=O)N(C)[C@@H](Cc2ccccc2)C(=O)N[C@@H](CC(=O)O)C(=O)N(C)[C@@H](CO)C(=O)N(C)[C@@H](Cc2ccc(O)cc2)C(=O)N[C@@H](CCC(N)=O)C(=O)N[C@@H](CO)C(=O)N(C)[C@@H](CO)C(=O)N(C)[C@@H](Cc2ccc(OC)cc2)C(=O)N[C@@H](C(C)C)C(=O)N(C)[C@@H](Cc2ccc(O)cc2)C(=O)N1C has an AC50 of 1860 nM (cofactor-independent phosphoglycerate mutase W431C; biochemical; Mycoplasma orale).
The inhibition of C=CCc1ccc(O)c(-c2cc(CC=C)cc(O)c2O)c1 is reported as 2.5 ± 3.6% (ABCG2; mitoxantrone transport, inhibitor; 10 µM, 30 min, added: mitoxantrone 5 µM; reference: Ko143 0.5 µM).
With CC(C)(O)c1ccccc1CC[C@H](c1cccc(/C=C/c2ccc3ccc(Cl)cc3n2)c1)S(=O)(=O)CC1(CC(=O)O)CC1 the inhibition was < 0% (CYP3A4; inhibitor; 2 µM, pH 7.4).
CC(C)C[C@H](NC(=O)[C@H](C)NC(=O)[C@H](CC(C)C)NC(=O)[C@@H](NC(=O)CNC(=O)[C@H](CC(C)C)NC(=O)[C@@H](N)Cc1ccccc1)C(C)C)C(=O)N[C@@H](CC(C)C)C(=O)NCC(=O)N[C@@H](Cc1ccc(O)cc1)C(=O)N[C@@H](CC(C)C)C(=O)N[C@@H](C)C(=O)N[C@H](C(=O)N[C@@H](CCCNC(=N)N)C(=O)N1CCC[C@H]1C(=O)N[C@@H](Cc1ccccc1)C(=O)N[C@@H](CC(C)C)C(=O)N1CCC[C@H]1C(=O)N[C@@H](CCCCN)C(=O)N[C@@H](CCCCN)C(=O)N[C@@H](CCCCN)C(=O)N[C@@H](CCC(N)=O)C(=O)N[C@@H](CCC(N)=O)C(=O)N[C@@H](CCCCN)C(N)=O)C(C)C — result for “time to full cleavage”: 400 min (trypsin; proteolytic stability, analytical HPLC; 450 µM, 22 °C, added: trypsin 0.001 mg/mL).
Cc1c(NC(=O)c2ccc3c(c2)CC[C@@H]2C[C@@](O)(C(F)(F)F)CC[C@@]32Cc2ccccc2)ccc[n+]1[O-] has a kinact of ~0.00045 s⁻¹ (CYP3A4/5, human; time-dependent inhibitor, measured: 1'-hydroxymidazolam; pooled human liver microsomes; added: midazolam 23 µM).
Under “water residency time”, Cc1cc(C)c(-c2cc(C)c(OP(=O)([O-])OCCC[C@H](C(=O)[O-])N3CCN(CC(=O)[O-])CCN(CC(=O)[O-])CCN(CC(=O)[O-])CC3)cc2C)c(C)c1.[Gd+3] is recorded as 108 ns (Albumin (ALB, Homo sapiens, UniProt P02768); albumin binding, variable temperature NMRD fit; albumin-bound complex; 0.1 mM, pH 7.4, 37 °C, fit 5-35 °C data, added: HSA 0.66 mM).
The SUVmax of CN1C(=O)[C@@H](Cc2ccc(O)cc2)NC(=O)CNC(=O)[C@H](Cc2ccc3ccccc3c2)NC(=O)[C@H](CCCNC(=N)N)NC(=O)[C@H]1CCCNC(=O)c1ccc(CNC(=O)CN2CCN(CC(=O)O)CCN(CC(=O)O)CCN(CC(=O)O)CC2)cc1 [gallium-68 labelled] is reported as 0.21 (CXCR4 (Homo sapiens, UniProt P61073); PET; human, brain background).
N=C(N)NCCC[C@H](NC(=O)[C@H](Cc1c[nH]c2ccccc12)NC(=O)[C@H](CCCCN)NC(=O)[C@H](CCCNC(=N)N)NC(=O)[C@H](Cc1c[nH]c2ccccc12)NC(=O)[C@H](CCCCN)NC(=O)[C@H](CCCNC(=N)N)NC(=O)[C@H](Cc1c[nH]c2ccccc12)NC(=O)[C@H](CCCCN)NC(=O)[C@H](CCCNC(=N)N)NC(=O)[C@@H](N)Cc1c[nH]c2ccccc12)C(=O)N[C@@H](CCCCN)C(N)=O has a remaining peptide of < 10% (trypsin; RP-HPLC; 6 h, 37 °C).
With CCCCCC1=C(NCC)C(=O)C(C/C=C(\C)CCC=C(C)C)=C(O)C1=O the inhibition was 89% (ABCG2; transport, inhibitor; up to 22.5 µM).
With O=C1Cc2cc(CCN3CCN(C4=NS(=O)(=O)c5ccccc54)CC3)c(Cl)cc2N1 the inhibition was < 0% (CYP3A4; inhibitor; 2 µM, pH 7.4).
For Cc1cc(C)c(-c2cc(C)c(OP(=O)([O-])OCCC[C@H](C(=O)[O-])N3CCN(CC(=O)[O-])CCN(CP(=O)([O-])O)CCN(CC(=O)[O-])CC3)cc2C)c(C)c1.[Gd+3], “ZFS modulation correlation time” read 30 ps (Albumin (ALB, Homo sapiens, UniProt P02768); variable temperature NMRD; HSA-bound complex).
The tracer uptake of CN[C@](C)(C[18F])C(=O)O is reported as 2 %ID/g (DU-145 tumour model; host not given, blood; 30 min, tumour-bearing).
CCCS(=O)(=O)c1ccc2[nH]c(NC(=O)OC)nc2c1 gave an inhibition of < 0% (CYP3A4; human liver microsomes; 2 µM, pH 7.4, added: midazolam).
CSc1nc2[nH]nc([N+](=O)[O-])c(=O)n2n1 — result for inhibition: “no inhibition” (SLCO1B3 (Homo sapiens, UniProt Q9NPD5); transport activity, measured: OATP1B3; 100 µM).
Under “complete degradation time”, N=C(N)NCCC[C@@H]1NC(=O)[C@H](CCCNC(=N)N)NC(=O)[C@H](CCCNC(=N)N)NC(=O)[C@H](CCCNC(=N)N)NC(=O)[C@H](Cc2c[nH]c3ccccc23)NC(=O)[C@H](CCCNC(=N)N)NC(=O)[C@H](CCCNC(=N)N)NC(=O)[C@@H](N)CCCCn2cc(nn2)C[C@@H](C(N)=O)NC1=O is recorded as 85 to 110 min (trypsin; substrate, HPLC; pH 7.4, 37 °C).
The Ki of COc1ccc2cc(NC(=O)c3cc(-c4ccccn4)nc4ccccc34)ccc2c1 is reported as 94000 nM (CYP3A4; enzyme activity, inhibitor).
O=C(NC(CSC(Cc1ccccc1)C(=O)NCCCc1cccnc1)Cc1c[nH]c2ccccc12)c1cccnc1 (centres unmarked) has an IC50 of 200 nM (CYP3A4; enzyme activity, inhibitor).
CC#N.O=S(=O)([O-])C(F)(F)F.O=S(=O)([O-])C(F)(F)F.Oc1ccc(O)c(CN(CCN(Cc2ccccn2)Cc2ccccn2)Cc2ccccn2)c1.[Mn+2] has a pKa of 6.3 (Mn(II) complex, metal-bound quinol; potentiometric pH titration; 25 °C, 100 mM KCl).
CNC(=O)Oc1cc(C)c([S+](C)[O-])c(C)c1 (centres unmarked) gave an inhibition of 9.1% (CYP3A4; inhibitor; 10 µM, pH 7.4).
CC(CCC(=O)NCC(=O)O)C1CCC2C3C(O)CC4CC(OC5OC(C(=O)O)C(O)C(O)C5O)CCC4(C)C3CCC12C (centres unmarked) — result for “vesicle uptake ratio”: ~4 (ABCC4 (Homo sapiens, UniProt O15439); substrate, membrane vesicle uptake; 0.2 µM, 10 min; reference: ATP over AMP).
The inhibition of CC(C)(O)c1ccccc1CC[C@H](c1cccc(/C=C/c2ccc3ccc(Cl)cc3n2)c1)[S+]([O-])CC1(CC(=O)O)CC1 (some centres unmarked) is reported as 6.67% (CYP3A4; inhibitor; 10 µM, pH 7.4).
For N=C(N)NCCC[C@@H]1NC(=O)[C@H](CCCNC(=N)N)NC(=O)[C@H](CCCNC(=N)N)NC(=O)[C@H](CCCNC(=N)N)NC(=O)[C@H](Cc2c[nH]c3ccccc23)NC(=O)[C@H](CCCNC(=N)N)NC(=O)[C@H](CCCNC(=N)N)NC(=O)[C@@H](N)CCCn2cc(nn2)C[C@@H](C(N)=O)NC1=O, “complete degradation time” read 85 to 110 min (trypsin; substrate, HPLC; pH 7.4, 37 °C).
With CC(C)[C@@H]1NC(=O)[C@H](CCCNC(=N)N)NC(=O)[C@H](Cc2ccc(O)cc2)NC(=O)[C@H](CO)NC(=O)[C@H](Cc2ccc(O)cc2)N(C)C(=O)[C@H](CC(N)=O)NC(=O)CNC(=O)[C@H](Cc2ccc(O)cc2)N(C)C(=O)[C@H](Cc2ccccc2)N(C)C(=O)[C@H](CC(=O)O)NC(=O)[C@H](Cc2ccc(O)cc2)NC(=O)[C@H](Cc2ccccc2)N(C)C(=O)[C@H](Cc2ccc(O)cc2)N(C)C(=O)[C@H](Cc2ccc(O)cc2)NC(=O)CSC[C@@H](C(N)=O)NC(=O)[C@@H]2CCCN2C1=O the AC50 was 9.33 nM (cofactor-independent phosphoglycerate mutase W431C; biochemical; Mycoplasma orale).
CC[C@H](C)[C@H](NC(=O)[C@H](CC(C)C)NC(=O)[C@H](CC(N)=O)NC(=O)CNC(=O)[C@H](CO)NC(=O)[C@H](CC(C)C)NC(=O)[C@@H](NC(=O)[C@H](CC(C)C)NC(=O)[C@H](CCC(N)=O)NC(=O)[C@]1(C)CCCC=CCCC[C@](C)(NC(=O)[C@@H]2CCCN2C(=O)[C@H](CC(=O)O)NC(C)=O)C(=O)N[C@@H](CCCNC(=N)N)C(=O)N[C@@H](CC(C)C)C(=O)N[C@@H](CC(C)C)C(=O)N1)C(C)C)C(=O)N[C@@H](CCCCN)C(=O)N[C@@H](CCC(=O)O)C(=O)N[C@@]1(C)CCCC=CCCC[C@@](C)(C(=O)N[C@@H](Cc2c[nH]cn2)C(=O)N[C@@H](CO)C(=O)N[C@@H](CCCNC(=N)N)C(N)=O)NC(=O)[C@H](CCCNC(=N)N)NC(=O)[C@H](CCCNC(=N)N)NC(=O)[C@H](C(C)C)NC1=O: remaining peptide “no effect” (Chymotrypsinogen A (Bos taurus, UniProt P00766); proteolytic stability, substrate; 100 µM, 24 h, pH 7.4, added: Chymotrypsinogen A 5 ng/mL).

For quick reference, copied from above:
Under “water residency time”, Cc1cc(C)c(-c2cc(C)c(OP(=O)([O-])OCCC[C@H](C(=O)[O-])N3CCN(CC(=O)[O-])CCN(CC(=O)[O-])CCN(CC(=O)[O-])CC3)cc2C)c(C)c1.[Gd+3] is recorded as 108 ns (Albumin (ALB, Homo sapiens, UniProt P02768); albumin binding, variable temperature NMRD fit; albumin-bound complex; 0.1 mM, pH 7.4, 37 °C, fit 5-35 °C data, added: HSA 0.66 mM).
With O=C1Cc2cc(CCN3CCN(C4=NS(=O)(=O)c5ccccc54)CC3)c(Cl)cc2N1 the inhibition was < 0% (CYP3A4; inhibitor; 2 µM, pH 7.4).
Cc1c(NC(=O)c2ccc3c(c2)CC[C@@H]2C[C@@](O)(C(F)(F)F)CC[C@@]32Cc2ccccc2)ccc[n+]1[O-] has a kinact of ~0.00045 s⁻¹ (CYP3A4/5, human; time-dependent inhibitor, measured: 1'-hydroxymidazolam; pooled human liver microsomes; added: midazolam 23 µM).
